Assay results gathered from unrelated publications.
Lines come from different studies, so protocols differ. Several values in a cell are separate wells, animals, samples, runs or records. Numbers after ± are the reported error.

`CC[C@H](C)[C@H](NC(=O)[C@H](CC(N)=O)NC(=O)[C@H](CCCCN)NC(=O)[C@H](Cc1ccccc1)NC(=O)[C@H](Cc1ccccc1)NC(=O)[C@H](Cc1c[nH]cn1)NC(=O)[C@@H](NC(=O)[C@@H](NC(=O)[C@@H]1CCCN1C(=O)[C@@H](N)CC(N)=O)C(C)C)C(C)C)C(=O)N[C@H](C(=O)N[C@H](C(=O)N[C@@H](C)C(=O)O)[C@@H](C)O)C(C)C` has an EC50 of > 50 µM (T cell clone Ob.2F3; T cell proliferation, agonist, [3H]thymidine incorporation; 72 h, peptide-pulsed APC, together with: EBV-transformed B cells DR2/DQ6 as APC).
`O=C(c1cccc(I)c1)N1CCN(C(=O)c2cc(Cc3n[nH]c(=O)c4ccccc34)ccc2F)CC1` [iodine-123 labelled] gave an EC50 of 0.011 µM (HCT-116 p53+/+; cell viability, Alamar Blue; 4 days).
`N#Cc1cccc(-c2ccccc2C(N)=O)c1` has an EC50 of > 100 µM (BSR-T7; T7 polymerase luciferase reporter).
`CC[C@H](C)[C@H](NC(=O)CNC(=O)[C@H](CC(=O)O)NC(=O)[C@H](CC(C)C)NC(=O)[C@@H](NC(=O)[C@H](CC(N)=O)NC(=O)[C@H](CCC(N)=O)NC(=O)CNC(=O)[C@H](CC(C)C)NC(=O)[C@H](CCCCN)NC(=O)[C@H](CCC(=O)O)NC(=O)[C@@H](NC(=O)[C@H](CCCCN)NC(=O)[C@H](CCC(=O)O)NC(=O)[C@H](Cc1ccccc1)NC(=O)[C@H](CC(C)C)NC(=O)[C@H](CCCCN)NC(=O)[C@H](Cc1c[nH]c2ccccc12)NC(=O)[C@@H](N)CCC(=O)O)[C@@H](C)CC)[C@@H](C)CC)C(=O)N[C@H](C(=O)N[C@@H](CCCCN)C(=O)N[C@@H](CC(C)C)C(=O)NCC(=O)N1CCC[C@H]1C(=O)N[C@@H](CC(C)C)C(=O)N[C@@H](CC(C)C)C(=O)N[C@@H](C)C(=O)N[C@@H](CC(C)C)C(=O)N[C@@H](CC(C)C)C(=O)NCC(=O)N[C@@H](CCC(N)=O)C(=O)N[C@@H](CC(C)C)C(=O)N[C@H](C(=O)N[C@@H](CCC(N)=O)C(=O)N[C@H](C(=O)N[C@@H](C)C(=O)N[C@@H](CC(C)C)C(N)=O)[C@@H](C)CC)[C@@H](C)O)[C@@H](C)CC` has an EC50 of ≥ 50 µM (sheep erythrocytes; turbidity; pH 7.5).
For `CC[C@H](C)[C@H](NC(=O)[C@H](C)NC(=O)[C@@H]1CCCN1C(=O)C(C)(C)NC(=O)[C@H](CC(C)C)NC(=O)[C@H](CC(N)=O)NC(=O)[C@@](C)(CC)NC(C)=O)C(=O)NC(C)(C)C(=O)N1CCC[C@H]1C(=O)N[C@](C)(CC)C(=O)N[C@@H](CC(C)C)C(=O)NC(C)(C)C(=O)N1CCC[C@H]1C(=O)N[C@H](CO)CC(C)C`, the EC50 was > 25 µM (HepG2; cytotoxicity, MTS; 48 h).
`N[C@@H]1C[C@H]1c1ccccc1` (racemic) gave an EC50 of > 2 µM (NCI-H510A; cell growth or viability, resazurin; 10 days).
For `C[C@@H](NC(=O)[C@H](Cc1ccccc1)NC(=O)[C@@H](CCCNC(=N)N)NC(=O)[C@H](CCCN)NC(=O)[C@@H]1CNC(=O)c2cc3cc(c2)C(=O)N[C@H](Cc2ccc4ccccc4c2)C(=O)N[C@@H](CCO)C(=O)N[C@@H](CC(N)=O)C(=O)N[C@H](Cc2ccc4ccccc4c2)C(=O)N[C@@H](c2ccccc2)C(=O)N[C@@H](CCCCNC3=O)C(=O)N[C@H](Cc2ccccc2)C(=O)N[C@@H](CCC(N)=O)C(=O)N[C@H](CCCNC(=N)N)C(=O)N[C@@H](CCCNC(=N)N)C(=O)N1)C(N)=O`, the EC50 was 5.9 ± 0.5 µM (H358; cell viability, CellTiter-Glo; 96 h, 10% FBS).
For `CC[C@H](C)[C@H](NC(=O)[C@H](CCCNC(=N)N)NC(=O)[C@H](CCCNC(=N)N)NC(=O)[C@H](CC(C)C)NC(=O)[C@H](CCC(=O)O)NC(=O)[C@H](CCC(N)=O)NC(=O)[C@H](C)NC(=O)[C@@H](NC(=O)[C@H](CNC(=O)CCl)NC(=O)[C@H](CCCNC(=N)N)NC(=O)[C@H](CCCNC(=N)N)NC(=O)[C@@H]1CCCN1C(=O)[C@H](CCCNC(=N)N)NC(=O)[C@H](CCCNC(=N)N)NC(=O)[C@@H]1CCCN1C(=O)[C@H](CCCNC(=N)N)NC(=O)[C@H](CCCNC(=N)N)NC(=O)[C@@H]1CCCN1C(=O)[C@H](CCCNC(=N)N)NC(=O)[C@H](CCCNC(=N)N)NC(=O)[C@@H]1CCCN1C(=O)[C@H](CCCNC(=N)N)NC(=O)[C@H](CCCNC(=N)N)NC(=O)[C@@H]1CCCN1C(C)=O)[C@@H](C)CC)C(=O)NCC(=O)N[C@@H](CC(=O)O)C(=O)N[C@@H](CCC(=O)O)C(=O)N[C@@H](Cc1ccccc1)C(=O)N[C@@H](CC(N)=O)C(=O)N[C@@H](C)C(=O)N[C@@H](Cc1ccc(O)cc1)C(=O)N[C@@H](Cc1ccc(O)cc1)C(=O)N[C@@H](C)C(=O)N[C@@H](CCCNC(=N)N)C(=O)N[C@@H](CCCNC(=N)N)C(N)=O`, the EC50 was < 5 µM (primary CLL cells, fludarabine/etoposide resistant; specific induced apoptosis, flow cytometry; 48 h).
With `C[C@@H]1NC(=O)[C@@H](Cc2ccccc2)NC(=O)[C@@H]2CCCCNC(=O)c3cc(cc(c3)C(=O)N[C@H](Cc3ccc4ccccc4c3)C(=O)N[C@@H](CO)C(=O)N[C@@H](CC(N)=O)C(=O)N[C@H](Cc3ccc4ccccc4c3)C(=O)N[C@@H](c3ccccc3)C(=O)N2)C(=O)NC[C@@H](C(=O)N[C@@H](CCCN)C(=O)N[C@H](CCCNC(=N)N)C(N)=O)NC(=O)[C@H](CCCNC(=N)N)NC(=O)[C@@H](CCCNC(=N)N)NC1=O` the EC50 was 16 ± 4 µM (H358; cell viability, CellTiter-Glo; 96 h, 10% FBS).
`F[P-](F)(F)(F)(F)F.F[P-](F)(F)(F)(F)F.[Ru+2].c1ccc(-c2ccccn2)nc1.c1ccc(-c2ccccn2)nc1.c1csc(-c2cc3cccnc3c3ncccc23)c1` has an EC50 of 6.82 µM and 6.8 µM (HL-60; cell viability, resazurin; 16 h drug-to-light interval, together with: visible light 100 J/cm2).
With `Cc1nc(C(=O)N[C@@H](CCCNC(=N)N)C(=O)NCC(=O)N[C@@H](CC(=O)O)C(=O)N[C@@H](CO)C(=O)NC2CC(C)(C)N([O])C(C)(C)C2)cc2c1[nH]c1ccccc12` the EC50 was 15.7 ± 2.5 µM (PC-12; cytoprotection, MTT; 1 h pretreatment, together with: 1 mM H2O2 and Fe(II) 1 h).
The EC50 of `C=CC(=O)Nc1cc(-c2nn(C3CCC(N4CCN(C(C)=O)CC4)CC3)c3ncnc(N)c23)ccc1Oc1ccccc1` (stereo not drawn) is reported as ≥ 10 µM (HCC827 GR6; cell proliferation; 3 days).
